Measured values gathered from unrelated publications.
Parts stem from different laboratories: compare values within a part only. Substitutions count along the parent as printed.

Study 1
Target: CCNF, cyclin fold, Cln2 fusion (human)
Technique: yeast growth competition, sequencing
Matrix: yeast
Notes: weak parent motif
Baseline: not given
Direction: higher = stronger binding
Measurement: normalised enrichment score
Starting sequence: PKN2 docking peptide (human); VSAVQKLDFSDTM
Variant = VSAVQKLPFSDTM [D8P]; result = 0.00584
Variant = VSAKQKLDFSDTM [V4K]; result = 0.843
Variant = VSAVQKLDYSDTM [F9Y]; result = 0.265
Variant = VSAVQKLDFQDTM [S10Q]; result = -0.0566
Variant = VSAVQKLDFSDSM [T12S]; result = 1.28
Variant = VSAVQPLDFSDTM [K6P]; result = -0.964
Variant = VSAVQKLDFSDLM [T12L]; result = 1.61
Variant = VSAVQKLDTSDTM [F9T]; result = -0.232
Variant = VSAVQKADFSDTM [L7A]; result = -0.35
Variant = VSAVQKIDFSDTM [L7I]; result = -0.522
Variant = VSAVQKLYFSDTM [D8Y]; result = 0.41

Study 2
Target: BATF3, bZIP domain (human)
Technique: DHFR protein complementation
Matrix: yeast
Notes: single substitutions, most at no-binding floor
Baseline: wild-type JUN-FOS pair
Direction: higher = stronger binding
Measurement: binding fitness
Starting sequence: JUN, bZIP domain (human); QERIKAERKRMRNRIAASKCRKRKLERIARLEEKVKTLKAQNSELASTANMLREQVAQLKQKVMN; partner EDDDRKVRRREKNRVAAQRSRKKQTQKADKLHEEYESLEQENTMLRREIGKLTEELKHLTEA
Variant = Q58R; result = 0.0621 natural log
Variant = A46P; result = -1.09 natural log
Variant = A29C; result = 0.11 natural log
Variant = E44H; result = 0.175 natural log
Variant = L31S; result = 0.0974 natural log
Variant = E33R; result = 0.171 natural log
Variant = R30H; result = 0.298 natural log
Variant = K36P; result = -0.172 natural log
Variant = T48E; result = 0.138 natural log
Variant = Q41C; result = -0.694 natural log
Variant = A29T; result = 0.171 natural log
Variant = R30F; result = 0.204 natural log
Variant = N42E; result = -0.424 natural log

Study 3
Target: RNA binding protein fox-1 homolog 2, RRM domain, GST-SBP tag (RBFOX2, Homo sapiens, UniProt O43251-10, residues 100-194)
Technique: RNA Bind-n-Seq
Molecule type: RNA
Matrix: in vitro
Concentration: 365 nM
Notes: natural RNA segment, single round, ends assumed
Baseline: no-protein control
Direction: higher = stronger binding
Measurement: RBNS enrichment (R)
Shared flanks, not repeated: GGGAGUUCUACAGUCCGACGAUC … UGGAAUUCUCGGGUGCCAA
Construct (chain): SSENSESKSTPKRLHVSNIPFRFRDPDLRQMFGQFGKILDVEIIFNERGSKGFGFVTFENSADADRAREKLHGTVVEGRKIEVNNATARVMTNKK
Oligonucleotide = GAGGCAGGAGAAUCGCUUGAACCUGGGAAGUGGAGGUUGAGUGAGCCGGGACCGUGCCAUUGUACUCCAGCCUGGGUGACAGAGCGAGAUUCCGUCUCAAAAAAAAAAAA; result = 0.391
Oligonucleotide = CUCUGUCCCUCGUGCUUCACUGUGGGCAGCCAGGGACAAGCUUCUGAAAGCAGUGUGAUACCCAAGUCAUAGGUGCUUCUCGUAUGUGAACAGGUGUCAUUCUACAGAUC; result = 0.244
Oligonucleotide = AAUCCCUCAAAGGCUACCCUACCCGUGAUACCUUCUGGGAGGGGCGGAGUCACCGAGACUGAGAUGAGGAGAGGGGCACGUGCGCCCGCCCGCCCUCUGGGCUGUGGAGC; result = 0.369
Oligonucleotide = CCCCGCCACCCCCAAAAAAAGGUUUAUUUCUGAGCAGCCAGGCAUGAUAAGUAAAGGCCCCUAGUCCUGCACAGGAGGCUGAGGCAGGAGAAUUGUUUAGUCCUGGAAUA; result = 1.12
Oligonucleotide = AAAUAUAGGUCAUAACUUCGGCACGACUUUAAGUACUAAGCAAUAAUGGAGUCGUCAGACGCCUCCGCUUACCGUGAACCAGUAUGAGCUUGGGAGAAAGGAACUGGAAG; result = 0.293
Oligonucleotide = UACAGUUUUUGUCACAAGACAGAAACUUUUGUCUCAUCCUCUCUGGCAAGUAGCAGCCUGAGGAAGAUGCUGGCUUGUCUGUACCGUCACGUCUGCAGCAGAGGCCCAGU; result = 0.254
Oligonucleotide = UUGCCUGCCUCGGUUGGGGAAACCUAGUGGUUUUGUCACACUAGUCGAUGUAUGAUGUUAGUGUUGUAAGACACCAUGGCAGAAUCUUCAUUAUUCUCACCUAUUCUGAA; result = 1.31
Oligonucleotide = GGCGUGGCCCCUGCCAACAGGCUGGGGUUGGGAGGCCUCUCUGGGCCUGGAGGUGGGGGUGGGGGCAGCCAAGUCCAGCCACUCUUCACCUGGCUCCCUGCUCUGGGCCC; result = 0.159
Oligonucleotide = CCUACUGGGUUCUCAGGGGGCAGACAGGUCCUGGCCGAAAGUCUUACCAUGGGGAUCGAUAGGGUGGUUAGCCCUGCGCACUAGGUCCAGCCAAUCUGUGCUCUGGGCCU; result = 0.278
Oligonucleotide = AUGUUGACAUUUUGUGGUUAUUUUCAGAUUAAUAGUAAUUGUUAUGCUCUUAAAAGCACUCAUAGAAAGUGUAAGCAUGUGUAAGCAUGUCCUGAAUAGCUUACUAUUCU; result = 0.991
Oligonucleotide = UCUUCCUGUUUAUGAUUAACUCUGGAUACCUGGGCAGGUGGGGCAGAGUGGGCAGGGAAGUGGCUUCAGCCCCUGAGACCCAGAAUAAUAACUAAUCAGCUAGUGUUGUG; result = 1.6
Oligonucleotide = AAGGUGCCCAUUUGACCACUGUGAGGCAAAUAGAAACAGUCCCUAAGGGUCCUAUGUGGCUGUGUUGUGACAGCCCUUACCCAGGUAAGAGAUGGAUGUCGUGAUGCCUC; result = 0.525

Single results of other studies
Substance = PhoQ, residues 284 288 289 292 302 303 SSTLSG; target = PhoP, residues 12 14 15 18 19 NMSSL (Escherichia coli, UniProt P23836); assay = Sort-seq, refers to: YFP reporter; system = E. coli; setting = PhoQ-PhoP variant library, with: 10 µM Mg2+; scale = baseline: high Mg2+ state, higher = stronger signaling; measurement = fold induction; result = 3.98

Repeated from above (study 1):
Variant = VSAVQKLDYSDTM [F9Y]; result = 0.265
Variant = VSAVQKLDFQDTM [S10Q]; result = -0.0566
Variant = VSAVQKLDFSDSM [T12S]; result = 1.28
